{"data": "Earlier results as cited in several papers", "CHRM1": "Muscarinic acetylcholine receptor M1 (CHRM1, Homo sapiens, UniProt P11229)", "AURKB": "Aurora kinase B (AURKB, Homo sapiens, UniProt Q96GD4)", "CHEK1": "Serine/threonine-protein kinase Chk1 (CHEK1, Homo sapiens, UniProt O14757)", "RPS6KA3": "Ribosomal protein S6 kinase alpha-3 (RPS6KA3, Homo sapiens, UniProt P51812)", "CYP2C8": "Cytochrome P450 2C8 (CYP2C8, Homo sapiens, UniProt P10632)", "PSMB1/PSMB5/PSMB3": "PSMB1/PSMB5/PSMB3 (Homo sapiens, UniProt P20618+P28074+P49720)", "BRD4 BD1": "Bromodomain-containing protein 4, BD1 (BRD4, Homo sapiens, UniProt O60885)", "note": "Compare with care: the assays were run in different laboratories. ± marks the error that the study gave.", "UniProt P11229, sequence (whole entry, looked up)": "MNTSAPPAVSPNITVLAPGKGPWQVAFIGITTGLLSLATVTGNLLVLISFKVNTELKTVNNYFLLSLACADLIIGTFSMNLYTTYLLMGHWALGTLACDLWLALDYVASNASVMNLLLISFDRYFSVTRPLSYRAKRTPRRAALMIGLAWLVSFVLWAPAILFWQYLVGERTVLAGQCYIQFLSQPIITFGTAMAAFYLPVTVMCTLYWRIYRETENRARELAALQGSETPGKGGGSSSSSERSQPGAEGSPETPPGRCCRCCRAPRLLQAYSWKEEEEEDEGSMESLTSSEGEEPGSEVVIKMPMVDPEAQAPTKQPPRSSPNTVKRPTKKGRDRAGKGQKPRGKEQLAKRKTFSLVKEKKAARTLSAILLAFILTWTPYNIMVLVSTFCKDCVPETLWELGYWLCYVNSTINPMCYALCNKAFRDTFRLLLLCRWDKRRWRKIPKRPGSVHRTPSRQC", "UniProt P10632, sequence (whole entry, looked up)": "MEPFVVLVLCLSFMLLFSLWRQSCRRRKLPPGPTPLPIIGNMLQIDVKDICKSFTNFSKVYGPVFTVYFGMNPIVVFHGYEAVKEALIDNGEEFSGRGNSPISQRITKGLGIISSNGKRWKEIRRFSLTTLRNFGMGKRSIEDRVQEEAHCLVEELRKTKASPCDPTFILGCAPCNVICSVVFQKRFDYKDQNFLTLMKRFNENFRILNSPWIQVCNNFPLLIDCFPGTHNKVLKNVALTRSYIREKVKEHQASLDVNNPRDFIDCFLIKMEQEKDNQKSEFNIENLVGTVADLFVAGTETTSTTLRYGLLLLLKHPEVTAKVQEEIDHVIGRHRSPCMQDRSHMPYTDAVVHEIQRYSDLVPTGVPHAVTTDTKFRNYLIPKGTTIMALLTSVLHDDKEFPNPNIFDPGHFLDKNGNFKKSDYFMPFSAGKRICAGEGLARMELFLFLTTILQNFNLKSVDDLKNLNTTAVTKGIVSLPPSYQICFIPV", "UniProt P20618, sequence (whole entry, looked up)": "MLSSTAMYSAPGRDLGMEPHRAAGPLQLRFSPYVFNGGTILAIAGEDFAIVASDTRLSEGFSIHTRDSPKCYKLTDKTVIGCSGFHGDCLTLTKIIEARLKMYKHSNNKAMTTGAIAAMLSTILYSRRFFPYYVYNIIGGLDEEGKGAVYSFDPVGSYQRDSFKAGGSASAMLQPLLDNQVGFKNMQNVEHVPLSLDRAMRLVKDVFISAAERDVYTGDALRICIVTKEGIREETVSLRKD", "UniProt P49720, sequence (whole entry, looked up)": "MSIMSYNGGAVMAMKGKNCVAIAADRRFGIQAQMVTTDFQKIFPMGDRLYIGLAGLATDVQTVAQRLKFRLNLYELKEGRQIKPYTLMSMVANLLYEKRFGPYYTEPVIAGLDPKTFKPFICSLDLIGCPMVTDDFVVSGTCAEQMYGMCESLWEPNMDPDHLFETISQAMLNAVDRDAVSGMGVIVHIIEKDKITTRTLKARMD", "UniProt Q96GD4, sequence (whole entry, looked up)": "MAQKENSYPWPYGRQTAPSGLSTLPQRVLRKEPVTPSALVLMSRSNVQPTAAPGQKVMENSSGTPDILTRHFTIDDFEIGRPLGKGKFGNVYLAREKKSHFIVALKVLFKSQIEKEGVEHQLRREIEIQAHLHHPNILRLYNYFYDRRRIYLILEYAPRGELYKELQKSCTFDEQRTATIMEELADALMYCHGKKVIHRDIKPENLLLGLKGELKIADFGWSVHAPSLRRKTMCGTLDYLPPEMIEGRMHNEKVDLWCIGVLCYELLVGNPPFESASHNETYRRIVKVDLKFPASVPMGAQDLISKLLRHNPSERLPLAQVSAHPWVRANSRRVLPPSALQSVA", "UniProt P51812, sequence (whole entry, looked up)": "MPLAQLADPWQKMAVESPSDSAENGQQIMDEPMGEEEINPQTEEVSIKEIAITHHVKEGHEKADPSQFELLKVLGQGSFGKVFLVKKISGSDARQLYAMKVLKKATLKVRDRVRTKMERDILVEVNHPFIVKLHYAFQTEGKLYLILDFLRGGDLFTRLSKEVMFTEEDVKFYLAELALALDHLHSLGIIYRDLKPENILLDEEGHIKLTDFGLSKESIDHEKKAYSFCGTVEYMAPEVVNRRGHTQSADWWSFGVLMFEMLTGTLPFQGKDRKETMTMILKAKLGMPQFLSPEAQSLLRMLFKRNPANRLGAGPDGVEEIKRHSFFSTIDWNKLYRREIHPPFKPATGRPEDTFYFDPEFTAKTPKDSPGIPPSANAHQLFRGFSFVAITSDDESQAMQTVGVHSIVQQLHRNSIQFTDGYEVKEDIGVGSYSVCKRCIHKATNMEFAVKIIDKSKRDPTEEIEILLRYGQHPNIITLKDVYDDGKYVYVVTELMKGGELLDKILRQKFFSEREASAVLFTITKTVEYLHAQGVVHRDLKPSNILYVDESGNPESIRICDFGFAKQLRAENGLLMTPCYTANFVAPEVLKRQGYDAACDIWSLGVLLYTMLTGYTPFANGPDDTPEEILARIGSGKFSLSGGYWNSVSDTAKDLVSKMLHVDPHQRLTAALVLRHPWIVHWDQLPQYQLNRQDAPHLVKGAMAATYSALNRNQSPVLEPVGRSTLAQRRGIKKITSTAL", "UniProt P28074, sequence (whole entry, looked up)": "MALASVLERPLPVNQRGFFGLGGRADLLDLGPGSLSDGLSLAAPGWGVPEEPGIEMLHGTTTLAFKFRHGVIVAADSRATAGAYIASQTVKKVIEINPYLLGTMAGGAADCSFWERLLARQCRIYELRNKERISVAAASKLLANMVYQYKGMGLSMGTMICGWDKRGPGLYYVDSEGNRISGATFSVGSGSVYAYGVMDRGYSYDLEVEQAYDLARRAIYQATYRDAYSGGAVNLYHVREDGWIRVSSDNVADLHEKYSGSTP", "UniProt O14757, sequence (whole entry, looked up)": "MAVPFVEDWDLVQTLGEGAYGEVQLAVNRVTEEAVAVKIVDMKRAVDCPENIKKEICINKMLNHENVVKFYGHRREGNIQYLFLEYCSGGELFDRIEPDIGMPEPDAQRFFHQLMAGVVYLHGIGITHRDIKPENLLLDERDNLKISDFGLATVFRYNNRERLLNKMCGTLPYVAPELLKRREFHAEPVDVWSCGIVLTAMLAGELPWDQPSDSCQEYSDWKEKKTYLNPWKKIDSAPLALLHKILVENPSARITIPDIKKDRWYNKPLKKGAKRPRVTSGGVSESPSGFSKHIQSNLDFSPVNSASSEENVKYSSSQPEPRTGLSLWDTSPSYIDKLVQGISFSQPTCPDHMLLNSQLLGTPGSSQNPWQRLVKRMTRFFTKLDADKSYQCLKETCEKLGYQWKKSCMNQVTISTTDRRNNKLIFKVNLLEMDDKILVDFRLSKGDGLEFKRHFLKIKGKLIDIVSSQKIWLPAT", "UniProt P11166, sequence (whole entry, looked up)": "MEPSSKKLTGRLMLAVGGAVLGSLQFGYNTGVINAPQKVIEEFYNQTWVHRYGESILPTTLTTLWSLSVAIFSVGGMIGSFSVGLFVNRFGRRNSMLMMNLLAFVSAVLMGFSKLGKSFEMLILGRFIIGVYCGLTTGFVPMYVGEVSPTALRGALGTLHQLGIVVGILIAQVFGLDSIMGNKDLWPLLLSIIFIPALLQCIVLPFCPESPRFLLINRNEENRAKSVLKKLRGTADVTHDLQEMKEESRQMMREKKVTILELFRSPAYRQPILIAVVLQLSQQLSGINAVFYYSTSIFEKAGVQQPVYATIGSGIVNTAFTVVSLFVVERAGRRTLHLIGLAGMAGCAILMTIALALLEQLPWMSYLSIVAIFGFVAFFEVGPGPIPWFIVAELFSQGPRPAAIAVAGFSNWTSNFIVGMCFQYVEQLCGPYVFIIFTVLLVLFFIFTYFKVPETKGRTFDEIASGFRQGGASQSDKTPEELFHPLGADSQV", "UniProt Q99640, sequence (whole entry, looked up)": "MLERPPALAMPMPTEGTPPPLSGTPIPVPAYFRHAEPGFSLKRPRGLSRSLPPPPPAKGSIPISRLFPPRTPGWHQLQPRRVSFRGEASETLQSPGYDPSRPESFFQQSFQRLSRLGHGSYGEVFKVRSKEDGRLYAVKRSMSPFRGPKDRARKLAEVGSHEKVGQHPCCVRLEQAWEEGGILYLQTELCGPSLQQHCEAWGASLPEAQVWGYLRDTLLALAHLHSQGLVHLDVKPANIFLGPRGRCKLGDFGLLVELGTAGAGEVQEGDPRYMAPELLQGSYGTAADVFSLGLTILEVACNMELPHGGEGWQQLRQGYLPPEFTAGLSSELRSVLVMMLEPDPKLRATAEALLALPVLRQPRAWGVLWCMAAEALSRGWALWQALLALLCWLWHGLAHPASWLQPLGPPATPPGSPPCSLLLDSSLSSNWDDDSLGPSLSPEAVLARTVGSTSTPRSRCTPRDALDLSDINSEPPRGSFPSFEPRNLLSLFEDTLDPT", "UniProt P11712, sequence (whole entry, looked up)": "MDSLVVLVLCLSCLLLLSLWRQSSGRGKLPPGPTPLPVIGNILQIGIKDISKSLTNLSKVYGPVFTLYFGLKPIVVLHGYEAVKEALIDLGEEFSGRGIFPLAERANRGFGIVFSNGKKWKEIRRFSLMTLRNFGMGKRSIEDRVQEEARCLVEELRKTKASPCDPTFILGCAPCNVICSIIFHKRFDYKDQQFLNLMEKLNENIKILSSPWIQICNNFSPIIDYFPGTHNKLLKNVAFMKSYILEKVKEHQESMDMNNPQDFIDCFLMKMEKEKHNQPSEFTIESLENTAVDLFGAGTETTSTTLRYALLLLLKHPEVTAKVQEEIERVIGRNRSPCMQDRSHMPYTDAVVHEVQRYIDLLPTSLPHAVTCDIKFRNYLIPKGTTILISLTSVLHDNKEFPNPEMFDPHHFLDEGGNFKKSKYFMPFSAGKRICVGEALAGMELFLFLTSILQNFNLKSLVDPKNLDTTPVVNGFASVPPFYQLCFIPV"}
{"Compound": "CC(C)[C@H](NC(=O)[C@H](CCCNC(=N)N)NC(=O)N[C@@H](Cc1ccccc1)C(=O)O)C(=O)N[C@H](C=O)CCCNC(=N)N", "tested on": "Cathepsin B (CTSB, Homo sapiens, UniProt P07858)", "setting": "literature value", "quantity": "IC50", "result": "0.48 µM"}
{"Compound": "C[N+]1(C)CCC(OC(=O)C(c2ccccc2)c2ccccc2)CC1", "tested on": "CHRM1", "assay": "inhibitor, radioligand binding", "quantity": "IC50", "result": "0.0045 µM"}
{"Compound": "CCn1cc(-c2ccnc3[nH]c(-c4cccc(CN(C)C)c4)cc23)c(-c2ccc(NC(=O)N(C)C)cc2)n1", "tested on": "AURKB", "assay": "kinase activity, inhibitor", "quantity": "IC50", "result": "0.00038 µM"}
{"Compound": "O=C(/C=C/c1ccc(O)c(O)c1/C=C/c1ccc(O)c(O)c1)O[C@H](Cc1ccc(O)c(O)c1)C(=O)O", "tested on": "sortase A (Staphylococcus aureus)", "assay": "inhibitor", "test system": "Staphylococcus aureus", "quantity": "IC50", "result": "5.75 µg/mL"}
{"Compound": "Oc1ccc(-c2ccc(-c3[nH]nc4c3Cc3cc(O)ccc3-4)cc2)cc1", "tested on": "CHEK1", "assay": "inhibitor", "quantity": "IC50", "result": "0.0044 µM"}
{"Compound": "O=C1NN(c2cccc(Cl)c2)C(=O)C1=Cc1ccc(-c2ccc(C(=O)O)c(Cl)c2)o1", "tested on": "KEAP1 NRF2-binding domain", "quantity": "IC50", "result": "15.2 µM"}
{"Compound": "Cc1nc2cc(C(=O)N(C)C)cc(O[C@H]3CCOc4cc(F)cc(F)c43)c2[nH]1", "tested on": "H+/K+-ATPase", "assay": "enzyme activity, inhibitor", "quantity": "IC50", "result": "0.13 µM"}
{"Compound": "COc1ccc(CCc2cc(OC)c(OC)c(OC)c2)cc1O", "tested on": "sortase A, Staphylococcus aureus", "assay": "inhibitor", "quantity": "IC50", "result": "20.9 µg/mL"}
{"Compound": "C=CCn1c(=O)c2cnc(Nc3ccc(N4CCN(C)CC4)cc3)nc2n1-c1ccc2c(n1)[C@@](O)(CC)CC2", "tested on": "Serine/threonine-protein kinase PLK1 (PLK1, Homo sapiens, UniProt P53350)", "quantity": "IC50", "result": "0.227 µM"}
{"Compound": "O=C(O)CNC(=O)C(CS)Cc1ccccc1 (stereo not shown)", "tested on": "Aminopeptidase N (ANPEP, Homo sapiens, UniProt P15144)", "quantity": "IC50", "result": "> 100 µM"}
{"Compound": "O=C(Oc1cccc(F)c1OC(=O)c1cccc(O)c1)c1cccc(O)c1", "tested on": "Solute carrier family 2, facilitated glucose transporter member 1 (SLC2A1, Homo sapiens, UniProt P11166)", "assay": "glucose uptake", "test system": "H1299", "quantity": "IC50", "result": "10.9 µM"}
{"Compound": "COC(=O)c1cc(O)c(O)c(O)c1", "tested on": "tyrosinase", "assay": "inhibitor", "quantity": "IC50", "result": "> 100 µM"}
{"Compound": "CN1CCC(=C2c3ccccc3CC(=O)c3sccc32)CC1", "tested on": "glutathione reductase (human erythrocyte)", "quantity": "IC50", "result": "12 µM"}
{"Compound": "COc1cc(/C=C/C(=O)NCCc2c[nH]c3ccc(O)cc23)ccc1O", "tested on": "tyrosinase", "assay": "inhibitor", "quantity": "IC50", "result": "23 µM"}
{"Compound": "Cc1ccc2c(c1)C(=O)[C@]1(O)CCN(c3ccccc3)C1=N2", "tested on": "Myosin-7 (MYH7, Bos taurus, UniProt Q9BE39)", "setting": "published range", "quantity": "IC50", "result": "0.4 to 30 µM"}
{"Compound": "Oc1ccc(/C=C/c2cc(O)cc(O)c2)cc1", "tested on": "tyrosinase", "assay": "inhibitor", "quantity": "IC50", "result": "7.2 µM"}
{"Compound": "N#Cc1ccc(-c2[nH]nc3c2Cc2ccc(OCCCN4CCOCC4)cc2-3)cn1", "tested on": "CHEK1", "assay": "inhibitor", "quantity": "IC50", "result": "0.0032 µM"}
{"Compound": "C#CCOc1ccccc1CCCCCC(=O)O", "tested on": "Cytochrome P450 2C19 (CYP2C19, Homo sapiens, UniProt P33261)", "assay": "inhibitor", "quantity": "IC50", "result": "300 µM"}
{"Compound": "C[C@@]12CCC(=O)c3coc(c31)C(=O)c1cc3c(O)ccc(O)c3cc12", "tested on": "sortase A (Staphylococcus aureus)", "assay": "inhibitor", "test system": "Staphylococcus aureus", "quantity": "IC50", "result": "13.9 µM"}
{"Compound": "CC(C)(C)NCCCNC(=O)c1cccc(Br)c1", "tested on": "TP53-binding protein 1, tandem tudor domain (Homo sapiens, UniProt Q12888)", "assay": "binding", "test system": "tandem tudor domain", "quantity": "IC50", "result": "29 µM"}
{"Compound": "CN(C)CCCn1cc(C2=C(c3c[nH]c4ccccc34)C(=O)NC2=O)c2ccccc21", "tested on": "RPS6KA3", "assay": "kinase activity, inhibitor", "quantity": "IC50", "result": "0.31 µM"}
{"Compound": "O=C(C(c1ccccc1)n1cnc2[nH]ncc2c1=S)N1CCCCCC1 (stereo not shown)", "tested on": "3-hydroxyacyl-CoA dehydrogenase type-2 (HSD17B10, Homo sapiens, UniProt Q99714)", "assay": "enzyme activity, inhibitor", "quantity": "IC50", "result": "0.092 µM"}
{"Compound": "O=C(O)c1cc(O)c2c(c1)C(=O)c1cc(O)cc(O)c1C2=O", "tested on": "Amine oxidase [flavin-containing] A (MAOA, Homo sapiens, UniProt P21397)", "quantity": "IC50", "result": "23.3 ± 1.16 µM"}
{"Compound": "CC(C)CCN[C@@H]1CCc2cc(O)c(N3CC(=O)NS3(=O)=O)c(F)c2C1", "tested on": "Tyrosine-protein phosphatase non-receptor type 1 (PTPN1, Homo sapiens, UniProt P18031)", "assay": "enzyme activity, inhibitor, in vitro", "quantity": "IC50", "result": "0.0018 µM"}
{"Compound": "Cn1cc(C2=C(c3cn(CCCSC(=N)N)c4ccccc34)C(=O)NC2=O)c2ccccc21", "tested on": "RPS6KA3", "assay": "kinase activity, inhibitor", "quantity": "IC50", "result": "0.036 µM"}
{"Compound": "O=C(O)CCCCCCCC(=O)O", "tested on": "tyrosinase", "assay": "inhibitor", "quantity": "IC50", "result": "> 369 µM"}
{"Compound": "C[N+]1(C)CCC(OC(=O)C(c2ccccc2)c2ccccc2)CC1", "tested on": "CHRM1", "assay": "inhibitor", "setting": "historical reference value", "quantity": "IC50", "result": "0.0045 µM"}
{"Compound": "Nc1cc(C(F)(F)F)c(-c2nc(N3CCOCC3)nc(N3CCOCC3)n2)cn1", "tested on": "Membrane-associated tyrosine- and threonine-specific cdc2-inhibitory kinase (PKMYT1, Homo sapiens, UniProt Q99640)", "assay": "enzyme activity", "setting": "10 µM", "how to read": "baseline: untreated", "quantity": "remaining activity", "result": "66%"}
{"Compound": "C[N+]1(C)CCC(OC(=O)C(c2ccccc2)c2ccccc2)CC1", "tested on": "CHRM1", "quantity": "IC50", "result": "0.0045 µM"}
{"Compound": "CN(C)CCC=C1c2ccccc2CCc2ccccc21", "tested on": "sigma 1 receptor", "quantity": "IC50", "result": "0.287 µM"}
{"Compound": "C#CCOc1ccccc1CCCCCC(=O)NS(C)(=O)=O", "tested on": "CYP2C8", "assay": "inhibitor", "quantity": "IC50", "result": "15 µM"}
{"Compound": "COCC(=O)N1CCC[C@H](C(=O)NCc2nc(-c3ccc(C#N)cc3)cs2)C1", "tested on": "PSMB1/PSMB5/PSMB3", "assay": "enzyme activity, inhibitor", "quantity": "IC50", "result": "> 30 µM"}
{"Compound": "OC(Cn1cncn1)(Cn1cncn1)c1ccc(F)cc1F", "tested on": "CYP2C8", "assay": "inhibitor", "quantity": "IC50", "result": "> 200 µM"}
{"Compound": "COc1cc(C[C@H](C)[C@H](C)Cc2ccc3c(c2)OCO3)ccc1O", "tested on": "tyrosinase", "assay": "inhibitor", "quantity": "IC50", "result": "30 µM"}
{"Compound": "C[C@@]12C(=O)OC(=O)[C@]1(C)[C@H]1CC[C@@H]2O1", "tested on": "protein phosphatase 1", "assay": "enzyme activity, inhibitor", "quantity": "IC50", "result": "0.473 µM"}
{"Compound": "O=C(/C=C/c1ccccc1)c1ccccc1", "tested on": "sortase A, Staphylococcus aureus", "assay": "inhibitor", "quantity": "IC50", "result": "53.1 µM"}
{"Compound": "COc1cc2c(cc1-c1c(C)noc1C)[nH]c1nc(C)nc(Nc3cc(C4CC4)nn3C)c12", "tested on": "BRD4 BD1", "assay": "biochemical", "setting": "bromodomain 1", "quantity": "IC50", "result": "0.002 µM"}
{"Compound": "COc1ccc(C[C@H](N)C(=O)N[C@H]2[C@@H](O)[C@H](n3cnc4c(N(C)C)ncnc43)O[C@@H]2CO)cc1", "tested on": "neuron-specific aminopeptidase (NAP)", "assay": "enzyme activity, inhibitor", "quantity": "IC50", "result": "1 µM"}
{"Compound": "O=C1c2c(O)cc(O)cc2OCC1c1ccc(O)cc1O (stereo not shown)", "tested on": "tyrosinase", "assay": "inhibitor", "quantity": "IC50", "result": "20 ± 3.5 µM"}
{"Compound": "Clc1ccc(COC(Cn2ccnc2)c2ccc(Cl)cc2Cl)c(Cl)c1 (stereo not shown)", "tested on": "Cytochrome P450 2C9 (CYP2C9, Homo sapiens, UniProt P11712)", "assay": "inhibitor", "quantity": "IC50", "result": "2.4 µM"}
{"Compound": "O=C(/C=C/c1ccc(O)cc1)NCCc1c[nH]c2ccc(O)cc12", "tested on": "tyrosinase", "assay": "inhibitor", "quantity": "IC50", "result": "74 µM"}
{"Compound": "Oc1ccc(/C=C/c2cc(O)cc(O)c2)cc1", "tested on": "α-amylase (Aspergillus oryzae)", "assay": "enzyme activity, inhibitor", "setting": "together with: 2-chloro-4-nitrophenyl α-D-maltotrioside", "quantity": "IC50", "result": "134 µM"}
{"Compound": "CNC(C)C1CCC(N)C(OC2C(N)CC(N)C(OC3OCC(C)(O)C(NC)C3O)C2O)O1 (stereo not shown)", "tested on": "Enterobacter cloacae", "test system": "clinical isolate RKI-No_76/15", "quantity": "MIC", "result": "≤ 0.5 µg/mL"}
{"Compound": "Cc1cc(-c2nc3cnc(C4CCOCC4)cc3n2[C@@H](C)c2ccccc2)nn(C)c1=O", "tested on": "BRD4 BD1", "assay": "biochemical", "setting": "bromodomain 1", "quantity": "IC50", "result": "0.008 µM"}
{"Compound": "O=C(OC[C@H]1O[C@@H](OC(=O)c2cc(O)c(O)c(O)c2)[C@H](OC(=O)c2cc(O)c(O)c(O)c2)[C@@H](OC(=O)c2cc(O)c(O)c(O)c2)[C@@H]1OC(=O)c1cc(O)c(O)c(O)c1)c1cc(O)c(O)c(O)c1", "tested on": "tyrosinase", "assay": "inhibitor", "quantity": "IC50", "result": "15 µM"}
{"Compound": "CC(C)NC(=O)[C@H]1CCC[C@H]1Nc1nc(Nc2ccc(C(=O)N(C)C3CCN(C)CC3)cc2)ncc1C(F)(F)F", "tested on": "AURKB", "assay": "kinase activity, inhibitor", "quantity": "IC50", "result": "0.009 µM"}
{"Compound": "CC(C)(O/N=C(\\C(=O)N[C@@H]1C(=O)N2C(C(=O)[O-])=C(C[n+]3ccccc3)CS[C@H]12)c1csc(N)n1)C(=O)O", "tested on": "Escherichia coli", "test system": "clinical isolate RKI-No_462/16", "quantity": "MIC", "result": "≤ 2 µg/mL"}
{"Compound": "COCC(=O)N1CCC[C@H](C(=O)NCc2nc(-c3ccccc3)cs2)C1", "tested on": "PSMB1/PSMB5/PSMB3", "assay": "enzyme activity, inhibitor", "quantity": "IC50", "result": "> 30 µM"}
{"Compound": "OC(Cn1cncn1)(Cn1cncn1)c1ccc(F)cc1F", "tested on": "CYP17A1 lyase", "assay": "oestrogen synthesis", "quantity": "IC50", "result": "28 µM"}
